Measured values from different studies.
Each numbered part is a random draw from the data of one study; scales do not carry over between parts.

Study 1
Target: Interferon regulatory factor 5, full length, phosphomimetic (IRF5, Homo sapiens, UniProt Q13568-2, residues 1-514, S451D/S453D/S456D/S462D)
Technique: protein-binding microarray
Form: double-stranded DNA, one strand shown
Matrix: in vitro
Concentration: 940 nM top
Setting: 60-bp whole probe
Together with: salmon DNA 0.4 mg/ml
Baseline: random background probes
Reading: higher = stronger binding
| Sequence | fitted relative affinity [z-score] |
| --- | --- |
| GCCTAGCACGACGGTTTCCTAGTGCTGACGTGCTAGGTCTTGATTCGCTTGACGCTGCTG | -0.293 |
| GCCTAGCACGACGGAATGGACTATCGGGACGTGCTAGTCTTGATTCGCTTGACGCTGCTG | -0.444 |
| GCCTAGCACTTAGTTCTCAGACTGGATTAGTGCTAGGTCTTGATTCGCTTGACGCTGCTG | 0.229 |

Study 2
Target: Histone acetyltransferase KAT6A, both winged helices, GST fusion (KAT6A, Homo sapiens, UniProt Q92794, residues 1-181)
Technique: protein binding microarray
Form: double-stranded DNA, one strand shown
Matrix: in vitro
Concentration: not given
Setting: 8-mer, flanks averaged, mean of 2 arrays, mostly near background
Baseline: not given
Reading: higher = stronger binding
Construct (chain): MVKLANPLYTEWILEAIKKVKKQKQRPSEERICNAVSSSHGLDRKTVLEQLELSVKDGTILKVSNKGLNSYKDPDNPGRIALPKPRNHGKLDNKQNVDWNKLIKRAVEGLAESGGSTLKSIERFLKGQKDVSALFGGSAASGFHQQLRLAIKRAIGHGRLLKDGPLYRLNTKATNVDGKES
| Sequence | E-score |
| --- | --- |
| AATGAACG | 0.0521 |
| CACCAAGA | -0.2 |
| AAATGTCT | -0.0318 |

Study 3
Target: RNA binding protein fox-1 homolog 2, RRM domain, GST-SBP tag (RBFOX2, Homo sapiens, UniProt O43251-10, residues 100-194)
Technique: RNA Bind-n-Seq
Form: RNA
Matrix: in vitro
Concentration: 365 nM
Setting: natural RNA segment, single round, ends assumed
Baseline: no-protein control
Reading: higher = stronger binding
Residues (chain): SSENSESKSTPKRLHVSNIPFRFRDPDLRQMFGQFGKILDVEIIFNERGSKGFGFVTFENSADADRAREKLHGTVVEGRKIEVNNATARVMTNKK
| Sequence | RBNS enrichment (R) |
| --- | --- |
| GGGAGUUCUACAGUCCGACGAUCUAUAUUUUUGUUCUCAGAUUCAAGAAAGCAACUACUUUGGACCAAAAGCCAUGGCCCAGAGAAUUGGGCCAGUAGAACCUAAGCCACACCUGAGGCCAGCUCUGGUCAGUUGGAAUUCUCGGGUGCCAA | 0.186 |
| GGGAGUUCUACAGUCCGACGAUCAAAAUAUAAAAAUUAGCCGGGCUUUGUGGCAUGUGCCUGUAAUCCCAGCUAUUUGGCAGGCUGAGGCAUGAGAAUCGCUUGAACCCAGGAGGUGGAGGUUACAGUGAGCUUGGAAUUCUCGGGUGCCAA | 4.19 |
| GGGAGUUCUACAGUCCGACGAUCUGUUUAGCCAAGUAGCUUUGGGCAUAGGCUGCCCAAUCUGAGCAAACACCAGUGAGGCUCUAUUGAGCCAAGACCAAGUCCUCAAAGCACCUGAACCACUGUGGCCUUCUUGGAAUUCUCGGGUGCCAA | 0.252 |

Single results of other studies
| Substance | target | assay | test system | conditions | scale | endpoint | result |
| --- | --- | --- | --- | --- | --- | --- | --- |
| PhoQ, residues 284 288 289 292 302 303 SSYNSA | PhoP, residues 12 14 15 18 19 VHSCL (Escherichia coli, UniProt P23836) | Sort-seq, item: YFP reporter | E. coli | PhoQ-PhoP variant library, together with: 10 µM Mg2+ | baseline: high Mg2+ state, higher = stronger signaling | fold induction | 0.951 |

Repeated from above (study 3):
| Sequence | RBNS enrichment (R) |
| --- | --- |
| GGGAGUUCUACAGUCCGACGAUCUAUAUUUUUGUUCUCAGAUUCAAGAAAGCAACUACUUUGGACCAAAAGCCAUGGCCCAGAGAAUUGGGCCAGUAGAACCUAAGCCACACCUGAGGCCAGCUCUGGUCAGUUGGAAUUCUCGGGUGCCAA | 0.186 |
